Measured values of several laboratories.
Numbered parts are unrelated; each lists some results of a single study. Values joined by “and” are separate records of one study, mostly repeats; a detail may differ. Positions count from the first letter of the parent shown.
UniProt P00519, sequence (whole entry, unmodified, looked up): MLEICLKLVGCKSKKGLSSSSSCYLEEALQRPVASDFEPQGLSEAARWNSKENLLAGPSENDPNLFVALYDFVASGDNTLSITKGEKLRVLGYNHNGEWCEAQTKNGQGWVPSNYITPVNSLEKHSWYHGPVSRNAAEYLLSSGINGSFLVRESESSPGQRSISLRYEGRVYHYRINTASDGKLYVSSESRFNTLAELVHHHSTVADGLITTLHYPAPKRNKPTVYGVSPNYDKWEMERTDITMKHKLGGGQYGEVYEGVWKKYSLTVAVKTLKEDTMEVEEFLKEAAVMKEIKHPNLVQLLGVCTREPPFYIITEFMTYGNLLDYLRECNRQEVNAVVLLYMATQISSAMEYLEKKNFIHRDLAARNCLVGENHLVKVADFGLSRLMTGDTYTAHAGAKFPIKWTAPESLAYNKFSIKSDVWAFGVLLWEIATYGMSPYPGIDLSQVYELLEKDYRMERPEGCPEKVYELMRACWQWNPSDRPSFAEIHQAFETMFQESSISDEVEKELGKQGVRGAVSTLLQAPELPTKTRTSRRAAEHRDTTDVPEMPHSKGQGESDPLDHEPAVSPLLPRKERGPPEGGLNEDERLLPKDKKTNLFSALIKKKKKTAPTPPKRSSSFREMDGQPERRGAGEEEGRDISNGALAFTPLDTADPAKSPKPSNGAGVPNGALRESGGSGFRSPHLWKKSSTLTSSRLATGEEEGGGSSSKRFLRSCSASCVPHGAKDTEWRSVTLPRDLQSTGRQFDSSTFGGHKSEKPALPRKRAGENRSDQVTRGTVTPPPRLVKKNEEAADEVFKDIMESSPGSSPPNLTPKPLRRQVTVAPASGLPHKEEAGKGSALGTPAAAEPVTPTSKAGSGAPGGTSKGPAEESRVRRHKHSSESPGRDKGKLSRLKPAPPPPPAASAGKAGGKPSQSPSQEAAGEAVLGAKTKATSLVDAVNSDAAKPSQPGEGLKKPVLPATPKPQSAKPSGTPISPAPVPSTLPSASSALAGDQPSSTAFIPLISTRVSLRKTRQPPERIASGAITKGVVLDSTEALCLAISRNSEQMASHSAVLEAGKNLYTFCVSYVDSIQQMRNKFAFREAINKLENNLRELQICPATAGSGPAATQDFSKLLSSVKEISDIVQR
UniProt O95747, sequence (whole entry, looked up): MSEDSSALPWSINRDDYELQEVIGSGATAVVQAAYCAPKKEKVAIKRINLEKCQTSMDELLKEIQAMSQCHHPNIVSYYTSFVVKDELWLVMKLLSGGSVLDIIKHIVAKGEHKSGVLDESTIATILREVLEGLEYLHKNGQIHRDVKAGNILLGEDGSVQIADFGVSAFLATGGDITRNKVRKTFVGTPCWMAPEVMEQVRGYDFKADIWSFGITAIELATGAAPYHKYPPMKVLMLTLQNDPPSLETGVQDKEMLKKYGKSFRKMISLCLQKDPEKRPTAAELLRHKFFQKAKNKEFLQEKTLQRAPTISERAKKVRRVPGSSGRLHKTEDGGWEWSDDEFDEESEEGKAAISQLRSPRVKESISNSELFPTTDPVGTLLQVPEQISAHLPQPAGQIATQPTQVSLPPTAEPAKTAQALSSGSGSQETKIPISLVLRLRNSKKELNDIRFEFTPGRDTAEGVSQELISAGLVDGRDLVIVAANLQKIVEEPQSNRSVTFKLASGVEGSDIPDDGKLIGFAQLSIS
UniProt Q8NE63, sequence (whole entry, looked up): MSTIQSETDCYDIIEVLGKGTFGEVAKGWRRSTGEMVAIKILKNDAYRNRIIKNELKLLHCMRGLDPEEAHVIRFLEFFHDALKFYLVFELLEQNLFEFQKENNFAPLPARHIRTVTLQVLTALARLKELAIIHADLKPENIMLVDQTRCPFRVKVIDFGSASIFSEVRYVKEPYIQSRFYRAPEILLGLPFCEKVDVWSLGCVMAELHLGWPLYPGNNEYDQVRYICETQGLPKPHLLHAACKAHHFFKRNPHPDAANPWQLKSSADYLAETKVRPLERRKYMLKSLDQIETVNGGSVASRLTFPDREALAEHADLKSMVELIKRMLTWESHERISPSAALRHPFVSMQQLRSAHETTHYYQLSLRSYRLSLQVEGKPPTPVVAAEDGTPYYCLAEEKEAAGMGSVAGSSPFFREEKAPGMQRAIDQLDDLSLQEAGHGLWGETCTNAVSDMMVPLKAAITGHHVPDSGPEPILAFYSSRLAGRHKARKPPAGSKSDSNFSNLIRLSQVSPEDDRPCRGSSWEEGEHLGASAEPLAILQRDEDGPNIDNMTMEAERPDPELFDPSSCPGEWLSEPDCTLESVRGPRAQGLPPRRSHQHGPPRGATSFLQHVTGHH
UniProt Q16816, sequence (whole entry, looked up): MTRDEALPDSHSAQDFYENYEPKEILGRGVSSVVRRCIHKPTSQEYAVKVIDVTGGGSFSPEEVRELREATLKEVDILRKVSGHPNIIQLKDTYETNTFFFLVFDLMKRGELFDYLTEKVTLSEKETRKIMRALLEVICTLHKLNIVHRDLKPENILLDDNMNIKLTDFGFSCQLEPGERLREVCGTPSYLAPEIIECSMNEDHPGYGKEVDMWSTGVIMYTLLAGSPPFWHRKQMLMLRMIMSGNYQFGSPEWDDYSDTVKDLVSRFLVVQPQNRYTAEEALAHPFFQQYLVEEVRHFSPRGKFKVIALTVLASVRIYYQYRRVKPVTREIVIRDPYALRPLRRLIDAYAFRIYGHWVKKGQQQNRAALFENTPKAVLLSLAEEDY
UniProt O95819, sequence (whole entry, looked up): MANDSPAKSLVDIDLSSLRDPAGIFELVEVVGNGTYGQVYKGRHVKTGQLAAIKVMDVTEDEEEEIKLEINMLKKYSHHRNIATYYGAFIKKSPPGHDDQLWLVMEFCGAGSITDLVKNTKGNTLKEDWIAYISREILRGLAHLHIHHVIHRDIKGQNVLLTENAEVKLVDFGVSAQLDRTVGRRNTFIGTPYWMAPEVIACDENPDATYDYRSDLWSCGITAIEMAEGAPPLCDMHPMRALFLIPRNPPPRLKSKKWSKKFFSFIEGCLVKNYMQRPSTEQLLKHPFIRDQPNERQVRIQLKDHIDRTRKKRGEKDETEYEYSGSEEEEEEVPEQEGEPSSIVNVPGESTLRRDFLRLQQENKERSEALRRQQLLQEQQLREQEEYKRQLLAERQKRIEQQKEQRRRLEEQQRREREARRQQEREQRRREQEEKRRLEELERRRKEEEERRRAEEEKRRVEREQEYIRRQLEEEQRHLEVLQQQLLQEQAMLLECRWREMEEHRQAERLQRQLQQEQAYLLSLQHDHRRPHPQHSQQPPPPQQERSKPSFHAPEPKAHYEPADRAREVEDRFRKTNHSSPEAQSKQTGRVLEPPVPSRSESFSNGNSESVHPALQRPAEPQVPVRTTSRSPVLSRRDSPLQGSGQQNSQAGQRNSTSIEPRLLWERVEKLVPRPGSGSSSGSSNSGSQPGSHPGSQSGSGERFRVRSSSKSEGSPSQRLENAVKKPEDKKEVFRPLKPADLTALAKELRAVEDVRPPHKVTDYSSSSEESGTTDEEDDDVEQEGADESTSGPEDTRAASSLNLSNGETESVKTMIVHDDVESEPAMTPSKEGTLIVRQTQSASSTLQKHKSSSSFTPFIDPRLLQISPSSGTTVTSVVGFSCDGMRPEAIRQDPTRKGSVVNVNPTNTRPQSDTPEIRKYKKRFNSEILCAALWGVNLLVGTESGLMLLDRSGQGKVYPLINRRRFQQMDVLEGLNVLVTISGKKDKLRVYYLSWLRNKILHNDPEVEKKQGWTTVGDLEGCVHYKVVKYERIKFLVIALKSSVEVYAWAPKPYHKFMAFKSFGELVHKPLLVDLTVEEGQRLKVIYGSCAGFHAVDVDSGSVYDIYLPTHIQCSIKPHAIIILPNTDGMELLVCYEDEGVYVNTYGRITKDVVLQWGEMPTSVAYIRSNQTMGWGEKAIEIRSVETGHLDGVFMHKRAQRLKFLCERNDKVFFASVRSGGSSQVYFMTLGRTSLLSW
UniProt Q9NQU5, sequence (whole entry, looked up): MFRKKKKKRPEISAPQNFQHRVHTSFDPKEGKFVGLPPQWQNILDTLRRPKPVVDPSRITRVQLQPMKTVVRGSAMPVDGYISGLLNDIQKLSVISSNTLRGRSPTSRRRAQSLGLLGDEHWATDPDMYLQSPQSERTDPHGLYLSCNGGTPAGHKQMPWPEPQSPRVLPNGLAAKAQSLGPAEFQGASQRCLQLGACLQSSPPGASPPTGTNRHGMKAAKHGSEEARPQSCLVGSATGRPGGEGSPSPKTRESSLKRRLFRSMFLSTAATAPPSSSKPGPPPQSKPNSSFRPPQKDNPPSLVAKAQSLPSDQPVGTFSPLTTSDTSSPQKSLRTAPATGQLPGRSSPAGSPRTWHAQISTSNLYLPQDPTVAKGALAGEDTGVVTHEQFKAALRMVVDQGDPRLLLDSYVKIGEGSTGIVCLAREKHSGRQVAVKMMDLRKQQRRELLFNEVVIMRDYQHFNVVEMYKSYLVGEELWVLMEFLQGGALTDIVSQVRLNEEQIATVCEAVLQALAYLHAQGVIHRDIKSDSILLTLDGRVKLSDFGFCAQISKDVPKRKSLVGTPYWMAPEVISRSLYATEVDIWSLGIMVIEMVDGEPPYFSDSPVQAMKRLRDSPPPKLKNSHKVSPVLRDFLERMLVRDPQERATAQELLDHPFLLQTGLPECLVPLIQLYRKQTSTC
UniProt P11802, sequence (whole entry, looked up): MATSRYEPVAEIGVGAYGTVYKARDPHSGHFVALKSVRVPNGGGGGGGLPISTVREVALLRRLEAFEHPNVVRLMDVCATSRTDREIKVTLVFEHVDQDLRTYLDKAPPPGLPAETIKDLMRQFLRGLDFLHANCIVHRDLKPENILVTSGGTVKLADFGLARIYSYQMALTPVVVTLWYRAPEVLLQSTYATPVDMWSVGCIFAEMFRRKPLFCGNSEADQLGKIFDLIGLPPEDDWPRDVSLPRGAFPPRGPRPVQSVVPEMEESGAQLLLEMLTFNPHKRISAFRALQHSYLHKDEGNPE

Set 1 — target: CCNA1, cyclin fold, Cln2 fusion (human); technique: yeast growth competition, sequencing; medium: yeast; notes: weak parent motif; reference: not given; reading: higher = stronger binding
Starting sequence: SLBP docking peptide (human); ARYKRKLLINDFG
| Change | normalised enrichment score |
| --- | --- |
| F12I | 0.0774 |
| R2Y | 0.547 |
| R2Q | 0.51 |
| D11H | 0.51 |
| G13D | 0.197 |
| D11W | -0.0896 |
| D11P | 0.309 |
| F12V | 0.256 |

Set 2 — read-out: cell-free assay; technique: competition with immobilised ligand; tested at: 1 µM
SMILES: Cc1nccc(COC(=O)N2C[C@@H]3[C@@H](CNC(=O)c4ccc5[nH]nnc5c4)[C@@H]3C2)n1
| target | remaining binding [%] |
| --- | --- |
| OXSR1 (Homo sapiens, UniProt O95747) | 100 |
| PIK3CG (Homo sapiens, UniProt P48736) | 89 |
| NUAK2 (Homo sapiens, UniProt Q9H093) | 100 |
| MTOR (Homo sapiens, UniProt P42345) | 96 |
| Tyrosine-protein kinase ABL1, phosphorylated (ABL1, Homo sapiens, UniProt P00519, F317L) | 90 |
| MST1R (Homo sapiens, UniProt Q04912) | 100 |
| MAP2K5 (Homo sapiens, UniProt Q13163) | 100 |
| RET (Homo sapiens, UniProt P07949, V804L) | 100 |
| PAK6 (Homo sapiens, UniProt Q9NQU5) | 95 |
| TSSK3 (Homo sapiens, UniProt Q96PN8) | 100 |

Set 3 — cell line: A-375; tested at: 100 µM; time: 18 h
| SMILES | viability |
| --- | --- |
| CN(C)CC/C=C1/c2ccccc2COc2ccc(CC(=O)O)cc21 | 106% |
| COc1ccc(-n2nc(C(N)=O)c3c2C(=O)N(c2ccc(N4CCCCC4=O)cc2)CC3)cc1 | 88.5% |
| O=C(C[S+]([O-])Cc1ccco1)NC/C=C\COc1cc(CN2CCCCC2)ccn1 (stereo not drawn) | 61.9% |

Set 4 — read-out: enzyme activity; action: inhibitor; tested at: 0.5 µM; reference: control
SMILES: Nc1cccc(-c2cc3c(Oc4cccc(O)c4)ncnc3[nH]2)c1
| target | remaining activity [%] |
| --- | --- |
| EPHB1 (Homo sapiens, UniProt P54762) | 40 |
| Cyclin-dependent kinase 6, with cyclin D3 (CDK6, Homo sapiens, UniProt Q00534) | 91.3 |
| PHKG1 (Homo sapiens, UniProt Q16816) | 81.5 |
| DYRK3 (Homo sapiens, UniProt O43781) | 89.8 |
| BLK (Homo sapiens, UniProt P51451) | 38.1 |
| EPHA4 (Homo sapiens, UniProt P54764) | 48.3 |
| RPS6KA6 (Homo sapiens, UniProt Q9UK32) | 95.4 |
| STK16 (Homo sapiens, UniProt O75716) | 70.4 |
| WNK3 (Homo sapiens, UniProt Q9BYP7) | 88.5 |
| TSSK2 (Homo sapiens, UniProt Q96PF2) | 95.6 |
| STK17A (Homo sapiens, UniProt Q9UEE5) | 93.7 |
| AXL (Homo sapiens, UniProt P30530) | 75.9 |
| Cyclin-dependent kinase 1, with cyclin B (CDK1, Homo sapiens, UniProt P06493) | 98.9 |
| CAMK2B (Homo sapiens, UniProt Q13554) | 101 |
| ABL1 (Homo sapiens, UniProt P00519) | 5.5 |
| MAP4K4 (Homo sapiens, UniProt O95819) | 12.5 |
| RPS6KA5 (Homo sapiens, UniProt O75582) | 83.6 |
| HIPK2 (Homo sapiens, UniProt Q9H2X6) | 100 |
| Cyclin-dependent kinase 4, with cyclin D3 (CDK4, Homo sapiens, UniProt P11802) | 92.8 |
| PDPK1 (Homo sapiens, UniProt O15530) | 86.8 |
| MAPKAPK3 (Homo sapiens, UniProt Q16644) | 97.6 |
| HIPK4 (Homo sapiens, UniProt Q8NE63) | 103 |

Other studies, line by line
| SMILES | tested on | assay | system | setting | how to read | quantity | value |
| --- | --- | --- | --- | --- | --- | --- | --- |
| C[C@@H]1CN(c2ccc(-c3cc(C(=O)NCCOCCOCCOCCOCCNC(=O)/C=C/c4[nH]cc(C(=O)N[C@@H](CC(N)=O)c5ccc(F)c(Cl)c5)c4-c4ccc(Cl)cc4F)ccc3F)cc2NC(=O)c2c[nH]c(=O)cc2C(F)(F)F)C[C@H](C)N1C | MV4-11 expressing HiBiT-WDR5 | ATPlite | RPMI with 10% FBS | 1510 nM, 24 h | – | viability | 112% and 91.7% and 113% |
| CC(C)(C)c1cnc(CSc2cnc(NC(=O)C3CCN(CCCCSc4cccc5c4C(=O)N(C4CCC(=O)NC4=O)C5=O)CC3)s2)o1 (stereo not drawn) | HH | CCK-8 | – | 50 nM | – | viability | 104% |
| COc1ccc(-c2c(Nc3ccccn3)[nH]c3c(C4=CCCCC4)c(-c4ccccc4)nn3c2=O)cc1 | – | – | cancer patients, plasma | oral, 200 mg, cycle 0 day -3, single dose | – | AUC(0-inf), geometric mean | 75200 ng·h/mL |
| CC(C)C[C@@H]1NC(=O)[C@@H](N(C)C(=O)[C@H](CC2CCC2)NC(=O)[C@@H]2C[C@@H](F)CN2C(=O)C2(C(F)(F)F)CC(F)(F)C2)CCCCNC(=O)C2(CC2)NC(=O)[C@H](Cc2cc(Cl)ccc2Cl)N(C)C1=O | human CD34+ HSPC | EdU flow cytometry | – | 10 nM, 24 h | – | G0-G1 phase cells | 49% and 43.2% |
| CC[C@@H](C)c1nc2cc(Nc3ccnc4ccc(S(=O)(=O)C(C)C)cc34)ccc2s1.Cl | L929 | caspase activity, Ac-DEVD-pNA absorbance | – | 50 µM, 0 h | higher = more activity | caspase-3 activity | 0.005 a.u. and -0.0035 a.u. and 0.007 a.u. and 0.0075 a.u. and 0.011 a.u. |
